Assay results pooled from the literature.
Each line is one published result; not all experiments were run side by side. Numbers after ± are the reported error.

`CCCC[C@H](OC(C)=O)c1ccccc1C(=O)O` has a clearance of 12.2 ± 2.13 mL/min/kg (Sprague-Dawley rats, both sexes, whole blood; intravenous, 5 mg/kg single dose).
`O=C1CC[C@H](N2Cc3cc(N4CCN(CC5CCN(c6ccc([C@@H]7c8ccc(O)cc8CC[C@@H]7c7ccccc7)cc6)CC5)CC4)ccc3C2=O)C(=O)N1` has a clearance of 15.4 mL/min/kg (item: parent compound; Sprague-Dawley rat, male, fed, plasma; intravenous, 5 mg/kg).
The clearance of `CN1CC[C@@H](COc2cnc(C#N)cc2-c2ccn3nc(NC(=O)C4CC4)cc3c2)C1` is reported as 88 mL/min/kg (rat, Sprague-Dawley, male, plasma; intravenous, 1 mg/kg).
The clearance of `CC1(C)C(NC(=O)C(=NOC2(C(=O)O)CC2)c2csc(N)n2)C(=O)N1OS(=O)(=O)O` (centres unmarked) is reported as 8.11 ± 1.35 mL/min/kg (Sprague-Dawley rat, plasma; intravenous, 10 mg/kg).
With `C=C(NC(=O)c1csc(-c2nc3c(cc2O)-c2nc(cs2)C(=O)NC(C(C)O)C(=O)NC(=C(C)OC)c2nc(cs2)C(=O)NC2c4nc(cs4)C(=O)NC(COC(=O)c4c5c6c(cccc6n4O)COC(=O)C(OC4CC(C)(O)C(N(C)C)C(C)O4)C2OC5)c2nc-3cs2)n1)C(N)=O` (centres unmarked) the clearance was 59.7 mL/min/kg (Sprague-Dawley rat, male, plasma; intravenous infusion, 18 mg/kg single dose).
`CCC(CC)n1c(Cc2cccs2)nc2cc(C(=O)N[C@@H](CC(=O)O)c3ccccc3)ccc21` has a clearance of 47.7 ± 13 mL/min/kg (Sprague-Dawley rat, male, plasma; ip, 10 mg/kg).
For `Nc1nc2cnc(C(=O)N3CCOC[C@@H]3c3ccc(C(F)(F)F)cc3)cc2c2c1COC2`, the clearance was 29.2 mL/min/kg (rat; intravenous, 0.5 mg/kg).
For `O=C([O-])CN1CCN(CC(=O)O)CCN(CC(=O)[O-])CCN(CC(=O)O)CC1.[64Cu+2]`, the clearance half-life was 21.4 ± 1.3 min (dynamic micro-PET imaging; rat, chronic myocardial infarction, infarct fibrotic myocardium; intravenous).

A few entries again:
With `C=C(NC(=O)c1csc(-c2nc3c(cc2O)-c2nc(cs2)C(=O)NC(C(C)O)C(=O)NC(=C(C)OC)c2nc(cs2)C(=O)NC2c4nc(cs4)C(=O)NC(COC(=O)c4c5c6c(cccc6n4O)COC(=O)C(OC4CC(C)(O)C(N(C)C)C(C)O4)C2OC5)c2nc-3cs2)n1)C(N)=O` (centres unmarked) the clearance was 59.7 mL/min/kg (Sprague-Dawley rat, male, plasma; intravenous infusion, 18 mg/kg single dose).
